Measurements gathered from unrelated publications.
Parts stem from different laboratories: compare values within a part only. Substitutions count along the parent as printed.

Study 1
Target: Transcriptional repressor CTCF (CTCF, Homo sapiens, UniProt P49711, residues 1-727, full length assumed)
Method: protein-binding microarray
Form: double-stranded DNA, one strand shown
Medium: in vitro
Concentration: not given
Setting: k-mer, scored over probes, only values ≥0.25
Reading: higher = stronger binding
Target sequence (chain): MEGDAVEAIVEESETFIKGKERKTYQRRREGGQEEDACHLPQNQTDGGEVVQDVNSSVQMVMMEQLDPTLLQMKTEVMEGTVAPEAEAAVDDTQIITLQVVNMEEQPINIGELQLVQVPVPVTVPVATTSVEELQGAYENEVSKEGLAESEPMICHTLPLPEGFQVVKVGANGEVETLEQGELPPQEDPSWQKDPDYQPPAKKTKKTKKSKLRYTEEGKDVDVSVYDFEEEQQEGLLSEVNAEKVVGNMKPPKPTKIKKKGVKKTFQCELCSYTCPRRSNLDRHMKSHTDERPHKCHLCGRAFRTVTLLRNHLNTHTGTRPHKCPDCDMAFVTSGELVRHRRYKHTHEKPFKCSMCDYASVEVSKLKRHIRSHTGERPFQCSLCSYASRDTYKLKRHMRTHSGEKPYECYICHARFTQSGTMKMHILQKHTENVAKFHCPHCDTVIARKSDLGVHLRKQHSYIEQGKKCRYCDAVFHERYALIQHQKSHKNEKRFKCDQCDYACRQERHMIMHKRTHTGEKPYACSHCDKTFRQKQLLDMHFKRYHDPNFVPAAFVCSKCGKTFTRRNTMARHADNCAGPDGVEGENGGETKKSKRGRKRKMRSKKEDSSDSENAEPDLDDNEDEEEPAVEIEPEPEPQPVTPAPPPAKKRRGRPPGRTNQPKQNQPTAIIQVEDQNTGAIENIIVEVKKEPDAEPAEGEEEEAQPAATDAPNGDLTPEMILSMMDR
Sequence | E-score
ATCTGCAT | 0.264
CTACTATA | 0.34
GTTAAATA | 0.278
AATATGTA | 0.255
ATTAAATG | 0.286
AATGCGCC | 0.398
ACTTTATG | 0.253
ATAAATAT | 0.354
GAATAGTA | 0.274
TGGTATAA | 0.271
GTATAGTA | 0.262
AACCGCTA | 0.264
GGGGGATA | 0.341
ATATTTAC | 0.397
CGATATTA | 0.288
TGCGCGAA | 0.332
CATAAATA | 0.346
TACGCGCA | 0.32
AAATGTGC | 0.278
CCATAACA | 0.266
AACAATAA | 0.276
AATTTAAA | 0.301
TGCGCTAA | 0.277
ATTGAATA | 0.253
AAAATAGG | 0.267

Study 2
Target: RING finger protein unkempt homolog, zinc fingers 1-6, GST-SBP tag (UNK, Homo sapiens, UniProt Q9C0B0, residues 30-357)
Chain of UniProt Q9C0B0 (30-357, looked up): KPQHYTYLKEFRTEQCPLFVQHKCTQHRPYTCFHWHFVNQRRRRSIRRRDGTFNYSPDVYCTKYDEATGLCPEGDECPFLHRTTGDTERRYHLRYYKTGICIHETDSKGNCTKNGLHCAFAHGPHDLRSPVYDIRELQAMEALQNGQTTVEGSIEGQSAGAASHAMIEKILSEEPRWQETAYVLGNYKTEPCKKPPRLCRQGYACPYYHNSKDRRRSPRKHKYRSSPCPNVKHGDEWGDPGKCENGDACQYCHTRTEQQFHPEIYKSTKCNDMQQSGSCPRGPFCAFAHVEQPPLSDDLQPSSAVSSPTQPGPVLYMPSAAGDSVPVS
Method: RNA Bind-n-Seq
Form: RNA
Medium: in vitro
Concentration: not given
Setting: RNA with constant flanks, ends assumed
Relative to: input RNA pool
Reading: higher = stronger binding
Constant ends, left off below: GGGAGUUCUACAGUCCGACGAUC … CAACAGAGGAUUGAGCAUCA
Sequence | bound/input enrichment
GAAUACAUAGGUGAAGAAGAAGCUACAUUAGUUGAUUUUGUUUGCUCUAAGGUUAUGGCACACCGUUCACCACAGAGCAUUUUAGAUGAUGUUGCCAUGGUACUAGAUGAAGAAGCAGAA | 1.41 ratio
CUCUCUCCAUACCAUCAGUUUCUCAGUUCCAGAAGUUAUACCUUUAUUUUGAGCUGUGUACCGGCCGAAUAAAAAAUUCCUUUCAUAUCGUUAUUGUACAAAAAGUAAAGAGUAUCCUAA | 0.346 ratio
AAACAUCUUCUCAAGCAGUCAACGUAGAAUGCUUGGGAAAUAGUCAUAAUUACCCACAUACCGUAAUUAAUAGAUGGUAAUUAAUUGAUCCUUGAUGUGAUGUUCUUUUGCAUAUUUCCU | 0.465 ratio
CACAGAGGAGAUCUGCUGUUCCUCACGAAUUUCCGGGAGGACCCCAUCAGAGCUGGUGAAACCGUUGUUUUUAAGGUUGAAGGAAGAGACAUUCCGAUAGUUCACAGAGUAAUCAAGGUU | 0.286 ratio
UAGACUUCAACAAGAAAAUCCUUCAUACAGCCUGGCAUCCCAAGGAAAACAUCAUUGCUGCCGCAACUACAAACAAUCUGUAUAUAUUUCAAGACAAAGUGAAUUAGGCUGGCAUUCUCU | 0.66 ratio
UGUGUGUGUGUGAGAGAGAGAGAGAGAGAGAGAGAGAGAGAGAGAGAGAGAGAUCUACCCAUCCGAAUUGAUUUAGGUGCCCAUUGCAUCUUUUGUACUAUGGAGUUGUUUACAGUAAGC | 2.37 ratio
AUAUUACUGCUGUGUAGAAACAUUAGUAGUGUUUUCAUUUUAGGUCCAAGUAAGAUGUUUUCCGUGAUAUACCUGCAGAAUGGCUCUGUCUUAAAACUGUGUAGAAAAACCCUAAUCUUU | 0.631 ratio
GGCAUCGCGGGCUGUGGAACUCUAUUAGUAUUGGAUCAAAAUGAAUCUGGACUUCAGAUUUUCCGAAGCUUUGACUGGAAUGACGGCUUGUUUGACGUUACCUGGAGUGAAAACAAUGAG | 1.17 ratio
UAAAAAAUCAAGCUAUGUACUUAUUUUCUAUAUUUGGGUGUGUUAAAUUGAGGAUCCGAAAAAUCCACAUAAUCACUGAUAAAGCAUUGAAACAGAAUAACCCAAGGGUAGUGUACCGAU | 0.215 ratio
UAGGAGUGCAGCCAGAUGGUUUAGACAAAUAACCUCUGCCUGCCAGCCGUUGGGGUGAUGAUCCGAAUGUUAUUGAAGAUAGUGGUUAUGGUUGGGGCUUAUAAUGCCGACUGCAUUUGA | 0.893 ratio
GACUUUUAAUAAUGUUUUUGAAUUUCGUAUUCUUUCAUUCCACUGUGUAAAGUGCCCGACAUUUUCCAAUUUAAAAUUUUGCUUUUUAUCCUGGCACUGGCAAAAAGAACUGUGAAAGUG | 0.475 ratio

Study 3
Target: RNA binding protein fox-1 homolog 2, RRM domain, GST-SBP tag (RBFOX2, Homo sapiens, UniProt O43251-10, residues 100-194)
Method: RNA Bind-n-Seq
Form: RNA
Medium: in vitro
Concentration: 365 nM
Setting: natural RNA segment, single round, ends assumed
Relative to: no-protein control
Reading: higher = stronger binding
Constant ends, left off below: GGGAGUUCUACAGUCCGACGAUC … UGGAAUUCUCGGGUGCCAA
Residues (chain): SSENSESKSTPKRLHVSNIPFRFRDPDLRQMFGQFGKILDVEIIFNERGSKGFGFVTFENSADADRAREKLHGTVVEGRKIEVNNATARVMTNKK
Sequence | RBNS enrichment (R)
UUUGAUGGUAAUAGUAUCCCAGUACAAAAAGGCUGUAAGAUAGUGAACCACAGUAGUCAUCUAUGUCUGUGCCUCCCUUCUUCAUUGGGGACAUUGUGGGCUGGAACAGC | 0.531
GCCACAGGGACCCAAGCAGUCGAGGUCUUUAAUGUGCCUGGAGAUGACUCUCUGCUAUUCAUGAAUCUUGCUAUUGCACAAACCCUAUCAAGAGCUGCUGCUUCCCUUCC | 0.738
UGAAGCUUUGCUUUGUGGAUUGUAUGCCUGAUAUGAUGAAUAGUCAUGUGAUGAUACAUGGGAAGAACUAUAGAAAGAAUUAUCCAGAAGCUAAGAUUUGAUGGCCAGCU | 0.596
GCUCACUCCCCAACCCCCAACUCCGUGUGGUAAGCAACAUGGCUUUGAUGAUAAACGACUUUACUCUAAAAGCGGCUGGAACUCAGUGACAUGAGCGUGCGCUGACCCCA | 0.35
AUUAAGAAGUAGAAGGCACUAGCUUCAAAGAGUGAGACAUUCAGGGCCUUUUCAGCAUUGGCCCACUAGCACCAUGCAUUUAUCUGAAUUCACGGGGCCCUCUGGGCACA | 2.07
UGAAGAGACUUGUUUCCUUCUACUUUUAUGUGUCUCAGAAUAUUUUUGAGGCGAAGGCGUCUGUCUCUUGGCUAUUUUAACCUAAAAUAACAGUCUAGUUAUAUUCCCUC | 0.232
UGUGGCCUGGCAUCGCAUCGUGGUGUGUCAAUGCCACAAAAUCGUGUGUCCGUGGAACCAGUCCUAGCCGCGUGUGACAGUCUUGCAUUCUGUUUGUCUCGUGGGGGGAG | 1.45
GCAGGAUGAAUUUUCUGCAGCUGUUUCAAAGUUGGGGUCUGUUCUUGAAUCCUCUAUUAAUUACUGUGUGUGAGCCAGAGGGAGCUGUGGUAAGGGUUGGGCCCCCAGCC | 1.22
ACGACAACAAUUCCACGAUGCCAAAUUCAUGGCAGACAUUGAUCUGGAUCCAGGCUGUACAUUGAAUAAAAAGAUUCGAAAUGCACAGUUAGCACAGUAUAACUUCAUUU | 0.226
UGAAUCAAAAGUUUUAAAAGUAGUUUUAAAAACUUUACACUAUAAUGAUUUAGUUUUGUUAUUGCAUGUCUGUGUUAAGUAUUUUACAUUUGAGAUUGGAAUUAUUAGAC | 11.8
AUGUACAGAUACUAGCAUUGCACAUAUAGUCUGCUUUCUGUUCCUCCAGAAUUUGAGUCCUGUUAAUGUAGUAGAAAAAAAAAAAAGAAAUUUUCUUUUUCUUUUGUGCU | 0.898
UUAUGGAAGCACUCUACAAUGAACAGUUGAAUUUUAUGUCUAUUCUUUUUUCCUAUUUUAAAAGUUCUAGUGGUAACACAAACUGUAAAUUUGAGUCAGAAUGUUUGGAG | 0.408

Study 4
Target: OGT, full length, His-tagged (human)
Method: phage display, sequencing
Medium: in vitro
Concentration: 1 µg OGT
Setting: single substitutions, 15-mer displayed peptide, unchanged parent 6.14
Relative to: input library
Reading: higher = stronger binding
Starting sequence: peptide; VAYPNSYMPKYQIST
Substitution | fold enrichment
P4A | 6.75 fold
S14K | 13.2 fold
Y7N | 0.431 fold
I13W | 0.502 fold
Y3A | 5.53 fold
T15E | 0.829 fold
Y11D | 0.801 fold
Y11E | 3.51 fold
P4D | 6.91 fold
P9N | 0.795 fold
M8H | 0.959 fold
P4Y | 9.55 fold
S14D | 4.12 fold
P4E | 8.58 fold
N5S | 6.34 fold
Y7K | 0.661 fold
K10P | 0.715 fold
S6A | 7.99 fold
K10W | 1.45 fold
M8L | 9.3 fold
P9I | 2.22 fold

Study 5
Target: CCND3, cyclin fold, Cln2 fusion (human)
Method: yeast growth competition, sequencing
Medium: yeast
Setting: weak parent motif
Relative to: not given
Reading: higher = stronger binding
Starting sequence: RBL2 docking peptide (human); STTRRRLFVENDS; partner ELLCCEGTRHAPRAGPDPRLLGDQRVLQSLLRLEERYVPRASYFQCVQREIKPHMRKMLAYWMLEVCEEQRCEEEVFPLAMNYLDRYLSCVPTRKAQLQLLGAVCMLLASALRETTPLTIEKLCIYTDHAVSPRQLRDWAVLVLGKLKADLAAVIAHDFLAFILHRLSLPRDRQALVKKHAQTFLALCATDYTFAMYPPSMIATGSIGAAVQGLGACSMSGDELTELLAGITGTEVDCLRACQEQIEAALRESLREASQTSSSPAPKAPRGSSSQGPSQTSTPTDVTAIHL
Substitution | normalised enrichment score
T2W | 0.129
S1V | 0.0896
N11E | 0.0889
N11G | 0.165
R4D | 0.00748
S13F | 0.134
S13L | 0.115
T3N | 0.0723
N11M | 0.155
R4H | 0.0688
S1H | 0.137
R6E | 0.049
R5A L7A | 0.0136
R5P | 0.169
T3F | 0.00426
T2M | 0.145
F8A | 0.0464
N11I | 0.0336
R6L | 0.2
S13W | 0.116
R5K | 0.0593
R4C | 0.185
R5H | 0.228
R5F | 0.0625

Some of these lines once more (study 4):
Substitution | fold enrichment
T15E | 0.829 fold
M8L | 9.3 fold
I13W | 0.502 fold
Y11D | 0.801 fold
P4Y | 9.55 fold
S6A | 7.99 fold
